Published values pooled from the literature.
Numbered parts are unrelated; each lists some results of a single study.
Sequence of UniProt Q05655 (whole entry, looked up): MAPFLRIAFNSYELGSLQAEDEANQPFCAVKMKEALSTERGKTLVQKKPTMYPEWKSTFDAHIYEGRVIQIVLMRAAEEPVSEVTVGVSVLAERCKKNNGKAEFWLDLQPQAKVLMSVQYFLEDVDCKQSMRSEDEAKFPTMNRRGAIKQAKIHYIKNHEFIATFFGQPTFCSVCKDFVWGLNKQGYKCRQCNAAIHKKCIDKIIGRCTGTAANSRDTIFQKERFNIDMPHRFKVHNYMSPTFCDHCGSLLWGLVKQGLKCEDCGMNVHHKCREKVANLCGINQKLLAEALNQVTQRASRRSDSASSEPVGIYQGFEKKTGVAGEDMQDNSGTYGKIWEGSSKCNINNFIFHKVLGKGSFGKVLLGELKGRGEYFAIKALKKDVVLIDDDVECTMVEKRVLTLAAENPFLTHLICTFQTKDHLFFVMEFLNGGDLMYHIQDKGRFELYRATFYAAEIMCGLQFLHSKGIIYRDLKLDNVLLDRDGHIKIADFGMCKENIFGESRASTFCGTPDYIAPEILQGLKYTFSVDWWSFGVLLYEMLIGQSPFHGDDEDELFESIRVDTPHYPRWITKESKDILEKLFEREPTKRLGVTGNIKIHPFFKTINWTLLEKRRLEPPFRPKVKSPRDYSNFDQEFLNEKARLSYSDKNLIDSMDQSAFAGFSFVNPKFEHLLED
Sequence of UniProt P10721 (whole entry, looked up): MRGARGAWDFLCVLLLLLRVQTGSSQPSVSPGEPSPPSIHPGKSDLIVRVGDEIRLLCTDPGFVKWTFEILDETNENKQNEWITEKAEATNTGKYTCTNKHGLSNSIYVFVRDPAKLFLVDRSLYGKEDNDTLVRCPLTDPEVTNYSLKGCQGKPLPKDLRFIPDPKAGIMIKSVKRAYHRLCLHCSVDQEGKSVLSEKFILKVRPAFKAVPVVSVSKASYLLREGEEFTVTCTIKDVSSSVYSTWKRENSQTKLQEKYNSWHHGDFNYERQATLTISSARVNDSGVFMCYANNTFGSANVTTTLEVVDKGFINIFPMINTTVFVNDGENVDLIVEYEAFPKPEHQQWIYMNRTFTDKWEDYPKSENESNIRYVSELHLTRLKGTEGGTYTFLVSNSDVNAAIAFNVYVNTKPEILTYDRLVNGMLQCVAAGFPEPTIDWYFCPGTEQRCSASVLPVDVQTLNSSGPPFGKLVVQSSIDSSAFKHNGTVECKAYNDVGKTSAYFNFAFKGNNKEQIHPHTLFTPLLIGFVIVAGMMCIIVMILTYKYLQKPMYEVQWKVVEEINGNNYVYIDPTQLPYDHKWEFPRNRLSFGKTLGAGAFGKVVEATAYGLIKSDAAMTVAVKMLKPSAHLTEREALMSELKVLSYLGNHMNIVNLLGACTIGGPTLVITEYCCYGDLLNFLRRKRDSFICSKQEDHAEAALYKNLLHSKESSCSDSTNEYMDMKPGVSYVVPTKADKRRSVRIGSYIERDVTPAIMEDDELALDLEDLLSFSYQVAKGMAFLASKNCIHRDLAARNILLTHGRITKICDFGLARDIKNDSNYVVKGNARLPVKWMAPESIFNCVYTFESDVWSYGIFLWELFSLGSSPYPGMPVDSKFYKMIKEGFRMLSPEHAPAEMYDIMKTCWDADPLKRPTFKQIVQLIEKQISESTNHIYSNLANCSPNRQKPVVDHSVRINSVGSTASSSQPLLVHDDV
Sequence of UniProt P20309 (whole entry, looked up): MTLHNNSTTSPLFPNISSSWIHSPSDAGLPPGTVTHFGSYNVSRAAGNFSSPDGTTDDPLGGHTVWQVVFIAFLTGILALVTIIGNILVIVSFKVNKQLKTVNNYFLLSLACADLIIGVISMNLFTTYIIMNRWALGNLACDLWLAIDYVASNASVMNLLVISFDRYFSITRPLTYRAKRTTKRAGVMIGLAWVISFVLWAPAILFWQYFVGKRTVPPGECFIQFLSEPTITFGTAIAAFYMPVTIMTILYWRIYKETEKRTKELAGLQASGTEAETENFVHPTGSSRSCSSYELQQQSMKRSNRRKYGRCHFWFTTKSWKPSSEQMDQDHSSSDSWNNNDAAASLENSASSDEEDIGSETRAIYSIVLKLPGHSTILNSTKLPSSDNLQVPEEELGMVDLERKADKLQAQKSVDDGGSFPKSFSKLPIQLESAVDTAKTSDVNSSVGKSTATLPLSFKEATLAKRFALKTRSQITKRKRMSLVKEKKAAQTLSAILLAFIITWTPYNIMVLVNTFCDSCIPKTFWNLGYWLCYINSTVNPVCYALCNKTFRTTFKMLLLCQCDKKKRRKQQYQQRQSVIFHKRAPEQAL
Sequence of UniProt Q12851 (whole entry, looked up): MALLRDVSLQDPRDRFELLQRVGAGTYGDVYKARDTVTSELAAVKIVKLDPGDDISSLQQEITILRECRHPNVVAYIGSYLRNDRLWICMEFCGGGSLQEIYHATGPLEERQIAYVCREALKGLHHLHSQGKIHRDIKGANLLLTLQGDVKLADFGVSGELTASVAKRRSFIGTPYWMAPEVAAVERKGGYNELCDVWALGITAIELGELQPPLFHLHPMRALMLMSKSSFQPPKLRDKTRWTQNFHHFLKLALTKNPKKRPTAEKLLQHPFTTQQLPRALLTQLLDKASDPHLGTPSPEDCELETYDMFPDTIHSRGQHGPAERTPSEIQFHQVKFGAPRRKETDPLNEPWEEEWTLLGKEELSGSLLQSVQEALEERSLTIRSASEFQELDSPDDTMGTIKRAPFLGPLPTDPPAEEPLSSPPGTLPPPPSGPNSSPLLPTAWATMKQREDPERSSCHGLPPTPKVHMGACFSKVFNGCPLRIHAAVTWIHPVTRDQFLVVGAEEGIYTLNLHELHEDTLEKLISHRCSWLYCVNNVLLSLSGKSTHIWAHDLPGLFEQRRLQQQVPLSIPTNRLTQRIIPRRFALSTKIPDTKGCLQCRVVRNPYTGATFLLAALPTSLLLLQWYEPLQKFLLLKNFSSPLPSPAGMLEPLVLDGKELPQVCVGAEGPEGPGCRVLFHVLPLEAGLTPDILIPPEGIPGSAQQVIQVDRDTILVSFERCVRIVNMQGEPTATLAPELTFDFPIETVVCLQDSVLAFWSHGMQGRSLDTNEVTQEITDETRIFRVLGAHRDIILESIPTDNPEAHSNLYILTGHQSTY
Sequence of UniProt O15264 (whole entry, looked up): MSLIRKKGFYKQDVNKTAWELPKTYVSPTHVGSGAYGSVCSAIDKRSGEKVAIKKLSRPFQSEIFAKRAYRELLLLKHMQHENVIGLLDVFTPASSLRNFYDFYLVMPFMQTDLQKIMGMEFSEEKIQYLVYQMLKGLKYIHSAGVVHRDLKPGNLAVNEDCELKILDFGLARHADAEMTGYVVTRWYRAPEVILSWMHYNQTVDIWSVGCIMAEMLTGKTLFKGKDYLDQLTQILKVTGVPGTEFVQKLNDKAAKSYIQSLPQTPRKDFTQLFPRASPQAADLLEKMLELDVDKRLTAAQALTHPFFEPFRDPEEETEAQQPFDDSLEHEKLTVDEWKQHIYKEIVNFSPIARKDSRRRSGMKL

Sample 1 — read-out: enzyme activity; mode: inhibitor; concentration: 0.5 µM; baseline: control; quantity: remaining activity
Compound: N/C(=N\[N+](=O)[O-])N/N=C\c1ccc(-c2cccc([N+](=O)[O-])c2)o1
target = KIT (Homo sapiens, UniProt P10721); value = 96.4%
target = MAPK13 (Homo sapiens, UniProt O15264); value = 101%
target = PRKCD (Homo sapiens, UniProt Q05655); value = 94.2%
target = MAP4K2 (Homo sapiens, UniProt Q12851); value = 115%

Further values, each from its own experiment
Compound = CC(=O)O[C@@H]1C[C@@]2(C)[C@H](c3ccoc3)C[C@H]3O[C@]32[C@]2(C)C(=O)C(O)=C3C(C)(C)C(=O)C=C[C@]3(C)C12 (some centres unmarked); test system = mouse, microsomes or S9; conditions = 2 µM, 0.5 h; quantity = remaining compound; value = > 99%
Compound = CNC(=O)c1cc(C(=O)N[C@H]2[C@@H]3COC[C@@H]32)cc2c1O[C@@H](CF)[C@@H]2c1ccccc1; tested on = CHRM3 (Homo sapiens, UniProt P20309); test = binding, radioligand binding; conditions = 10 µM; quantity = inhibition; value = 12.6%
Compound = Brc1cnc2n[se]nc2c1; test system = mouse, microsomes or S9; conditions = 2 µM, 0.5 h; quantity = remaining compound; value = 91.2%
Compound = CN1CCN(C(=O)O[C@H]2c3nccnc3C(=O)N2c2ccc(Cl)cn2)CC1; tested on = mouse MPNST tumor cells; test = high-content nuclear imaging, measured: cell number; conditions = 10 µM, 12 h, mean of 2 replicates; how to read = baseline: plate mean, higher = more cells; quantity = nuclei count; value = 1.91 z-score

Repeated from above (sample 1):
target = MAP4K2 (Homo sapiens, UniProt Q12851); value = 115%
